Measured values gathered from unrelated publications.
Each numbered part is a random draw from the data of one study; scales do not carry over between parts.

Sample 1 — technique: RNA Bind-n-Seq; molecule type: RNA; matrix: in vitro; tested at: 20 nM; notes: 6-mer, flanks averaged, single round; with: 150 mM KCl; relative to: input library; reading: higher = stronger binding
Target: TAR DNA-binding protein 43, full length, His tag (TARDBP, Homo sapiens, UniProt Q13148, residues 1-414)
Sequence	6-mer enrichment (R)
CAAUCC	0.574
GCACGU	0.926
CGCCGC	0.829
CCUGUA	0.65
UAAGCG	0.934
GUCAUU	0.615

Sample 2 — technique: aptamer microarray, sandwich; molecule type: DNA with 2'F-ANA; matrix: in vitro; tested at: 200 nM; with: Cy3 exosite-II aptamer, 400 nM; reading: higher = stronger binding; sequence: GGTTGGTGTGGTTGG
Target: Prothrombin, mature alpha-thrombin (F2, Homo sapiens, UniProt P00734)
Notes: whole 15-mer aptamer, many near background
Modification	mean fluorescence intensity [a.u.]
2'F-ANA at 4 7 8 14	121
2'F-ANA at 4 5 6 7 8 9 11 15	59.7
2'F-ANA at 1 3 4 5 10 11 13 15	47
2'F-ANA at 2 4 8 9 10 11 13 15	125
2'F-ANA at 1 2 3 5 6 7 9 11 12 13 14 15	49.8
2'F-ANA at 4 5 7 11 13	255

Sample 3 — technique: RNA Bind-n-Seq; molecule type: RNA; matrix: in vitro; tested at: 1 µM; notes: whole 134-nt RNA, ends assumed; with: 150 mM KCl; relative to: input library; reading: higher = stronger binding
Target: Ras GTPase-activating protein-binding protein 1, C-terminal RGG region (G3BP1, Homo sapiens, UniProt Q13283)
UniProt Q13283, sequence (whole entry, looked up): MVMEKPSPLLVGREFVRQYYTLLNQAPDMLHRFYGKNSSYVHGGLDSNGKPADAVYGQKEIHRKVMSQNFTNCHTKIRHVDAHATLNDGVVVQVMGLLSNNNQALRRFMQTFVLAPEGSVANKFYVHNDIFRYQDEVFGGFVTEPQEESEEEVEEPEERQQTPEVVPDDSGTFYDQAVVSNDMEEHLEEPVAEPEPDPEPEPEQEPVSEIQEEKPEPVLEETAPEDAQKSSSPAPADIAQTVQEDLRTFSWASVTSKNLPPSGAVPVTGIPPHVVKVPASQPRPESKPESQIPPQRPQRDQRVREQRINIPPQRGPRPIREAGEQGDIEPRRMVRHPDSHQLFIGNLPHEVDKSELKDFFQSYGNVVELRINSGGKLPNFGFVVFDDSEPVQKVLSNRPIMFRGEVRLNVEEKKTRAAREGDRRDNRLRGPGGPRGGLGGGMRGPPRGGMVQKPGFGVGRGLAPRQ
Sequence	log2 enrichment
GGGAGUUCUACAGUCCGACGAUCUAACUUUAGAGGAGGAUCUGAUGGAUAUGGCAGUGGACGUGGAUUUGGGGAUGGCUAUAAUGGGUAUGGAGGAGGACCUGGAGGUGGAAAUGGAAUUCUCGGGUGUCAAGG	-0.549
GGGAGUUCUACAGUCCGACGAUCCAAGUCCUGUGCUACACAUCGUAUGUACCGAAUCGGAGGUUUUUUUGGUUUUUGGAAAGUAUUAUGUUACGCCGUUCGGAUCUGCACUUCUGGAAUUCUCGGGUGUCAAGG	-1.91
GGGAGUUCUACAGUCCGACGAUCCACAGAUAACACGCACCCACACAGACACAGAGGGAAGGGGUUGGGAUGGGGACAGGGUGCACAGCAGGGCGGGGUAGGACCCCAGCCCCUUGGAAUUCUCGGGUGUCAAGG	-0.338
GGGAGUUCUACAGUCCGACGAUCGCUCGCCCGAGCUCAGAGGUGAUCAAAGACGCCAACUUGUACAUCAGCGGGCUCCCGCGGACCAUGACCCAGAAGGACGUAGAAGACAUGUGGAAUUCUCGGGUGUCAAGG	-1.3

Other studies, line by line
Substance	target	assay	system	setting	scale	endpoint	value
PhoQ, residues 284 288 289 292 302 303 AEGLLW	PhoP, residues 12 14 15 18 19 VQGLL (Escherichia coli, UniProt P23836)	Sort-seq, refers to: YFP reporter	E. coli	PhoQ-PhoP variant library, with: 10 µM Mg2+	relative to: high Mg2+ state, higher = stronger signaling	fold induction	10.4

Repeated from above (sample 2):
Modification	mean fluorescence intensity [a.u.]
2'F-ANA at 4 7 8 14	121
